{"data": "Measurements gathered from unrelated publications", "PRKACA": "cAMP-dependent protein kinase catalytic subunit alpha (PRKACA, Homo sapiens, UniProt P17612)", "NTRK1": "High affinity nerve growth factor receptor (NTRK1, Homo sapiens, UniProt P04629)", "DCLRE1A": "DNA cross-link repair 1A protein (DCLRE1A, Homo sapiens, UniProt Q6PJP8)", "STK26": "Serine/threonine-protein kinase 26 (STK26, Homo sapiens, UniProt Q9P289)", "note": "Each line is one published result; not all experiments were run side by side. “And” joins repeats or separate records; there may be more than shown. Numbers after ± are the reported error.", "chain of UniProt Q6PJP8 (whole entry, looked up)": "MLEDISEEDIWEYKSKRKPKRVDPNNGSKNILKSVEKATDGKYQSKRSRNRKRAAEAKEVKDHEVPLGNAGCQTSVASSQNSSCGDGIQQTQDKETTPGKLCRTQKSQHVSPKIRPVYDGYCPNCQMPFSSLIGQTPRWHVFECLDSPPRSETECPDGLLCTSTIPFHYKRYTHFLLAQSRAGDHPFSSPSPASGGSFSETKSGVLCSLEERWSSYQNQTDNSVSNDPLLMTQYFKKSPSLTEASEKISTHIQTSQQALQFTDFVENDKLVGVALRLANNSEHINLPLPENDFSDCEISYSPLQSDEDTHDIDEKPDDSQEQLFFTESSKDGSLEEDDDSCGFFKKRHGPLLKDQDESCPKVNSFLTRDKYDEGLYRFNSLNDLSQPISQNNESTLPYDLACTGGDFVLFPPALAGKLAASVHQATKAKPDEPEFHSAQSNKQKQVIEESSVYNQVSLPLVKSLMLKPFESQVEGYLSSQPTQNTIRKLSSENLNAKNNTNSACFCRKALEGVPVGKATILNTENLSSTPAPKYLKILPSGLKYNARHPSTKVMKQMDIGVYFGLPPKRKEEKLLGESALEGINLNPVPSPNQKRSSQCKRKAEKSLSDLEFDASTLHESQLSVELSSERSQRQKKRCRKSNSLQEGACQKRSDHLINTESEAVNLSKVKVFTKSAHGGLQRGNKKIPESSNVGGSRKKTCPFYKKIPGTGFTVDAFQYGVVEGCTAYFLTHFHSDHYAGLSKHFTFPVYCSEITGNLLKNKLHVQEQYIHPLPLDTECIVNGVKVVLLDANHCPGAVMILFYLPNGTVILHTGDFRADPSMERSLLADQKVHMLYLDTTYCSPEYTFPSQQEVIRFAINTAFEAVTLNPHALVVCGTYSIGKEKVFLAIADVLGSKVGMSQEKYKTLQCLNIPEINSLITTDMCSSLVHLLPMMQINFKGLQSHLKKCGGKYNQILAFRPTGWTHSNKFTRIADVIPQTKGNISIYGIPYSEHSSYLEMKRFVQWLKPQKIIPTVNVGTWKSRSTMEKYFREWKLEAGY", "chain of UniProt Q92626 (whole entry, looked up)": "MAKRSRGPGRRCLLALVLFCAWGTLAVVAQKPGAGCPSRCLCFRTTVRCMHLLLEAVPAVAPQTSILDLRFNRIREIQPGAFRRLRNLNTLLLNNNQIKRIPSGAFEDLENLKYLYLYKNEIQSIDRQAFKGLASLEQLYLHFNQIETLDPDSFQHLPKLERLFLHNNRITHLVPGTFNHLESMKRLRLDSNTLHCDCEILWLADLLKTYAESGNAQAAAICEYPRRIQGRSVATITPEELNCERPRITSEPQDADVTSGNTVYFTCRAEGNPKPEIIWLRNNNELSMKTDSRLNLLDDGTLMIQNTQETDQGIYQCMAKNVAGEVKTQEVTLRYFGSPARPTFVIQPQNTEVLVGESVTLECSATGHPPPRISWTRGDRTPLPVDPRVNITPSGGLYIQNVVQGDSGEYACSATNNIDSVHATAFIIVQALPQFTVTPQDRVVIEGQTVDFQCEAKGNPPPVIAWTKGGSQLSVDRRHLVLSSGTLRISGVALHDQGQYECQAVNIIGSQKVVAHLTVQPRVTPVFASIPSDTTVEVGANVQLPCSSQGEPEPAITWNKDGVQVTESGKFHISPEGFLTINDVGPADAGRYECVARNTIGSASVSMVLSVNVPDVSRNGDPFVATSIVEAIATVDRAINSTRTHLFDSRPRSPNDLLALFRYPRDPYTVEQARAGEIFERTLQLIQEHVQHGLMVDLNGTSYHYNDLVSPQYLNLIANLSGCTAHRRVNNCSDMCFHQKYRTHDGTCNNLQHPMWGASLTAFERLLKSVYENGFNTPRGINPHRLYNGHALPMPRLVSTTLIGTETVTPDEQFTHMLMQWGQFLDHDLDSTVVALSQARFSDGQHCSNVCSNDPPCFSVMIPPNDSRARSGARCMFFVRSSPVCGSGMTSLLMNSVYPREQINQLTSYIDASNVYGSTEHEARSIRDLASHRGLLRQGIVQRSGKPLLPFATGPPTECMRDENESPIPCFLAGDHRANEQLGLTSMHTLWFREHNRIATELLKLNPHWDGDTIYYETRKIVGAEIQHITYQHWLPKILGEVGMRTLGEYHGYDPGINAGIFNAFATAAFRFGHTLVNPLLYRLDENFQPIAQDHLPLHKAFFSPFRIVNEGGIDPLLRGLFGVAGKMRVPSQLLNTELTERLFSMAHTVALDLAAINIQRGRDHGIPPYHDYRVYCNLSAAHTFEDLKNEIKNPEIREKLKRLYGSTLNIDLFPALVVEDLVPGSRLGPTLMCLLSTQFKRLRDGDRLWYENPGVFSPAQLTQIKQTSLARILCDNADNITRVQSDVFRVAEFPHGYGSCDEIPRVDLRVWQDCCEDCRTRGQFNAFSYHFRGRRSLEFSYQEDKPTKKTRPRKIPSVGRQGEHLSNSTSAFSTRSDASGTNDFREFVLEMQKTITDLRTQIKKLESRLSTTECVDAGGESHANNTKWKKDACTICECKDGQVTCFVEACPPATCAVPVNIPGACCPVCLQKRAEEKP", "chain of UniProt P04629 (whole entry, looked up)": "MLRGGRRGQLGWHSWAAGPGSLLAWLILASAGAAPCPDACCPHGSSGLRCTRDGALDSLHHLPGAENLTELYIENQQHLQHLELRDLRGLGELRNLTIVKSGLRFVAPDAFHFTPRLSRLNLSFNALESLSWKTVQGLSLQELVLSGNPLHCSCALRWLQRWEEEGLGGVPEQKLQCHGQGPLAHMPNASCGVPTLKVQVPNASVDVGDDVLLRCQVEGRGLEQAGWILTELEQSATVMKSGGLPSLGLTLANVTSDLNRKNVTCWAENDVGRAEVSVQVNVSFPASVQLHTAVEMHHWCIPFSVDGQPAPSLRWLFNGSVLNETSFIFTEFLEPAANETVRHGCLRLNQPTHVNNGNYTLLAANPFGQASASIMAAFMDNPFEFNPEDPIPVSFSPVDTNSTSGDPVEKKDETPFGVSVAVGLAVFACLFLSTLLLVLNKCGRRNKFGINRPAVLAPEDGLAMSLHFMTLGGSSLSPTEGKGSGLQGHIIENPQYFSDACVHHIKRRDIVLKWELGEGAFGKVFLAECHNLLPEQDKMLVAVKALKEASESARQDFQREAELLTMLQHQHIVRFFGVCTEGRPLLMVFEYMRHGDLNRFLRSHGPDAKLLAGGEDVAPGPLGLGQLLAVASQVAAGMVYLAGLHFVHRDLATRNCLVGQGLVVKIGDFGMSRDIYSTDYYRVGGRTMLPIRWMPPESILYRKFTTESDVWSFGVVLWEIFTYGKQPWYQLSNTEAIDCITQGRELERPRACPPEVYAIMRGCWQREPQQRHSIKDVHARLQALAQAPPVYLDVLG", "chain of UniProt Q9P289 (whole entry, looked up)": "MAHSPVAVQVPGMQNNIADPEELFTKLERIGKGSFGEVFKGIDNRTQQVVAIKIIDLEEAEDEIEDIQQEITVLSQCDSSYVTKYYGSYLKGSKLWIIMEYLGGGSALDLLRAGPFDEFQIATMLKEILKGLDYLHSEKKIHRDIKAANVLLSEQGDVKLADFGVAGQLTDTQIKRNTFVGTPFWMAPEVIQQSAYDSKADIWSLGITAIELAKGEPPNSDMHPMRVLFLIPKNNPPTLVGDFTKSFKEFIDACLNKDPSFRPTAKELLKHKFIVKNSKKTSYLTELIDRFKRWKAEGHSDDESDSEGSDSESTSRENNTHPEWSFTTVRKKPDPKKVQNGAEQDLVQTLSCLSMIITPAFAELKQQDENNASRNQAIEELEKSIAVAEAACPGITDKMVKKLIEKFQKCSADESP", "chain of UniProt Q14012 (whole entry, looked up)": "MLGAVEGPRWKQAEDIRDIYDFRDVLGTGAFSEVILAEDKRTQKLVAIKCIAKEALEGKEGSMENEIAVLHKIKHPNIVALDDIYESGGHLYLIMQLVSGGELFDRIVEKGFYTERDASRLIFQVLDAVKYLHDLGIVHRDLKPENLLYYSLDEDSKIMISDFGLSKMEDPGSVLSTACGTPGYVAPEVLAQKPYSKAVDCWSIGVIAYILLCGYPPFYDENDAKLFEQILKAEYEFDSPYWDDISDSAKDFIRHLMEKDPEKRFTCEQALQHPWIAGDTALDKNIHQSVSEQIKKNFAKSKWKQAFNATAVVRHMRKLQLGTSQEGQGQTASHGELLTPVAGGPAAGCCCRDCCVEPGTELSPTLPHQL", "chain of UniProt P45983 (whole entry, looked up)": "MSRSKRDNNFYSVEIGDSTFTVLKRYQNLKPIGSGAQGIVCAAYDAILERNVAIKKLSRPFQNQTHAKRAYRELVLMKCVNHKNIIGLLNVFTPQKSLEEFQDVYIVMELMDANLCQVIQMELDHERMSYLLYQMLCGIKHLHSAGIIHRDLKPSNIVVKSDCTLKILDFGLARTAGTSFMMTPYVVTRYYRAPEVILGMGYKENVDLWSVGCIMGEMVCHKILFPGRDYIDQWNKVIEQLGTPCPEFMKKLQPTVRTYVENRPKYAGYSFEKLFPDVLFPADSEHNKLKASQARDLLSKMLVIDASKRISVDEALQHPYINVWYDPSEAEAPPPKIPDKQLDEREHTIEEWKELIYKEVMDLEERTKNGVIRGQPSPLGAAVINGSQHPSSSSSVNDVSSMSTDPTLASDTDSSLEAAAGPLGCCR", "chain of UniProt Q15831 (whole entry, looked up)": "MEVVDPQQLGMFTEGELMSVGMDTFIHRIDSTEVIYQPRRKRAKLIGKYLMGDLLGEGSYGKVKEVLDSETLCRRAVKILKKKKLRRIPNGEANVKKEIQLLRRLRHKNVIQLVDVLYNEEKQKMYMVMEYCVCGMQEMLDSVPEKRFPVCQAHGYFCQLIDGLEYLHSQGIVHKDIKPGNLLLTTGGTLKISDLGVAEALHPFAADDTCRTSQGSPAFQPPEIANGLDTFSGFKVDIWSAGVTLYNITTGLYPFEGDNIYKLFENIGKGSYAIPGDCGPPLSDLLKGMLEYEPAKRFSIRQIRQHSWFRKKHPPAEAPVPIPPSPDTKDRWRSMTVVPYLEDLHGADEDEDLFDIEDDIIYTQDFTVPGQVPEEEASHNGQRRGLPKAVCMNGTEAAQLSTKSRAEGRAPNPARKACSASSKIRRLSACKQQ"}
{"Structure (SMILES)": "Cc1cc(Nc2cc(N3CCN(C)CC3)nc(Sc3ccc(NC(=O)C4CC4)cc3)n2)[nH]n1", "target or system": "PRKACA", "test": "kinase activity, KinaseProfiler", "setting": "0.03 µM, species human", "how to read": "reference: control", "measurement": "remaining activity", "value": "107%"}
{"Structure (SMILES)": "COc1cc(Nc2ncc3c(n2)-c2ccc(Cl)cc2C(c2c(F)cccc2OC)=NC3)ccc1C(=O)O", "target or system": "KIT", "test": "inhibitor, biochemical kinase", "setting": "1 µM", "measurement": "remaining activity", "value": "104%"}
{"Structure (SMILES)": "C1=C/COCc2cc(ccc2OCCN2CCCC2)Nc2nccc(n2)-c2cccc(c2)COC/1", "target or system": "EGFR (Homo sapiens, UniProt P00533, del752-759)", "setting": "concentration not given", "how to read": "reference: untreated control", "measurement": "remaining activity", "value": "92%"}
{"Structure (SMILES)": "OCCS", "target or system": "uncharacterized protein (Lacticaseibacillus rhamnosus, UniProt A0A7S7JIA0)", "test": "inhibitor", "setting": "1000 µM, 5 min", "how to read": "reference: untreated", "measurement": "remaining activity", "value": "90.8 ± 1.2%"}
{"Structure (SMILES)": "O=C(NC1CCC1)c1ccc2nc(-c3cccc(NS(=O)(=O)NCCN4CCCCC4)c3)cn2c1", "target or system": "NTRK1", "test": "enzyme activity", "setting": "10 µM", "measurement": "remaining activity", "value": "74%"}
{"Structure (SMILES)": "Cc1nc(N=Nc2cc(S(=O)(=O)[O-])c3cc([N+](=O)[O-])cc(S(=O)(=O)[O-])c3c2)c(COP(=O)([O-])[O-])c(C=O)c1O.[Na+].[Na+].[Na+].[Na+]", "target or system": "DCLRE1A", "test": "exonuclease activity, inhibitor, fluorescence HTS", "setting": "10 µM, 80 min, with: 8 nM 5P-FQ substrate", "how to read": "reference: high and low controls", "measurement": "remaining activity", "value": "51.8%"}
{"Structure (SMILES)": "Cc1cc(NC(=O)c2cccc(NC(=O)/C=C/CN(C)C)c2)ccc1Nc1nccc(-c2cccnc2)n1", "target or system": "MAPK8 (Homo sapiens, UniProt P45983)", "test": "enzyme activity, inhibitor", "setting": "44.44 µM, 0 h, unit not given, with: GSH 10 mM pre-incubation", "how to read": "reference: vehicle", "measurement": "remaining activity", "value": 0.0192}
{"Structure (SMILES)": "COc1ccc(Cl)cc1-c1cc(=O)[nH]c(=S)n1CC(N)=O", "target or system": "Myeloperoxidase (MPO, Homo sapiens, UniProt P05164)", "setting": "0.625 µM, 0.1 h", "measurement": "remaining activity", "value": "72.7%"}
{"Structure (SMILES)": "C=CC(=O)N1CCC([C@@H]2CCNc3c(C(N)=O)c(-c4ccc(Oc5ccccc5)cc4)nn32)CC1", "target or system": "STK26", "test": "kinase activity, inhibitor, HotSpot radiometric", "setting": "100 nM, with: ATP 10 µM", "measurement": "remaining activity", "value": "79.3 ± 0.3%"}
{"Structure (SMILES)": "COc1cc(-c2cncc3c2CN(C)Cc2cc(N4CCNCC4)ccc2-3)cc(OC)c1OC", "target or system": "Map2k4 (Mus musculus, UniProt P47809)", "test": "kinase activity", "setting": "1 µM, mouse enzyme, with: ATP 10 µM", "how to read": "reference: DMSO control", "measurement": "remaining activity", "value": "88%"}
{"Structure (SMILES)": "CN1CCN(C(=O)c2ccc([C@H]3[C@@H](F)[C@@H](F)C[C@@H](F)[C@H]3F)cc2)CC1", "test": "liver microsome stability", "test system": "cynomolgus liver microsomes", "setting": "1 µM", "measurement": "hepatic clearance", "value": "4.9 mL/min/kg"}
{"Structure (SMILES)": "CNc1ncc2c(/C=C/C(=O)N3CCC(OC)CC3)nn(Cc3cccc(C(F)(F)F)c3)c2n1", "target or system": "NTRK1", "test": "kinase activity, inhibitor", "setting": "1 µM", "how to read": "reference: untreated control", "measurement": "remaining activity", "value": "69%"}
{"Structure (SMILES)": "O=c1cc(O)cc(/C=C/c2ccc(O)c(O)c2)o1", "target or system": "DCLRE1A", "test": "exonuclease activity, inhibitor, fluorescence HTS", "setting": "10 µM, 80 min, with: 8 nM 5P-FQ substrate", "measurement": "remaining activity", "value": "41.9%"}
{"Structure (SMILES)": "CC(=O)ON=C1C=CC(=C(C#N)c2ccccc2)C=C1", "target or system": "Clk1 (Mus musculus, UniProt P22518)", "test": "enzyme activity, inhibitor, ADP-Glo", "setting": "2 µM, about MIC/10, with: ATP 10 µM", "measurement": "remaining activity", "value": "98%"}
{"Structure (SMILES)": "COc1cc(F)ccc1-c1ncnc(Nc2cccc(C[S@](C)(=N)=O)c2)n1", "target or system": "PRKACA", "test": "kinase activity", "setting": "10 µM, with: 10 µM ATP", "measurement": "remaining activity", "value": "113%"}
{"Structure (SMILES)": "O=C1NC(=O)/C(=C/c2ccc(-c3ccc(F)cc3O)o2)S1", "target or system": "PRKACA", "test": "enzyme activity", "setting": "10 µM", "measurement": "remaining activity", "value": "66%"}
{"Structure (SMILES)": "C[C@@H](Oc1ccc(S(C)(=O)=O)cc1C(=O)N1C[C@@H]2C[C@]2(c2cc(C(F)(F)F)on2)C1)C(F)(F)F", "target or system": "SLC6A9 (Homo sapiens, UniProt P48067, G373S)", "test": "glycine uptake, inhibitor, [3H]glycine uptake", "setting": "0.001 µM, G319S mutant, log concentration 1, with: [3H]glycine", "how to read": "reference: no inhibitor", "measurement": "remaining activity", "value": "93.9%"}
{"Structure (SMILES)": "COc1ccc(-c2coc3cc(O)ccc3c2=O)c(O)c1O", "target or system": "DCLRE1A", "test": "exonuclease activity, inhibitor, fluorescence HTS", "setting": "10 µM, 80 min, with: 8 nM 5P-FQ substrate", "measurement": "remaining activity", "value": "49.3%"}
{"Structure (SMILES)": "CN(Cc1cccnc1)C(=O)c1ccc(C2CCCCC2)cc1", "test": "liver microsome stability", "test system": "dog liver microsomes", "setting": "1 µM", "measurement": "hepatic clearance", "value": "27 mL/min/kg"}
{"Structure (SMILES)": "O=c1oc2c(O)c(O)cc3c(=O)oc4c(O)c(O)cc1c4c23", "target or system": "DCLRE1A", "test": "exonuclease activity, inhibitor, fluorescence HTS", "setting": "10 µM, 80 min, with: 8 nM 5P-FQ substrate", "measurement": "remaining activity", "value": "45%"}
{"Structure (SMILES)": "NC/C(=C\\F)COc1cccc(Cn2c(=S)[nH]c(=O)c3[nH]cnc32)c1", "target or system": "Peroxidasin homolog (PXDN, Homo sapiens, UniProt Q92626)", "test": "enzyme activity, inhibitor, Amplex UltraRed", "setting": "10 µM", "how to read": "reference: control", "measurement": "remaining activity", "value": "46.5% and 43.9%"}
{"Structure (SMILES)": "O=C(O)c1ccc(Nc2ncc3c(n2)-c2ccc(Cl)cc2C(c2c(F)cccc2F)=NC3)cc1", "target or system": "human LIMK1(h)", "test": "kinase activity", "setting": "1 µM", "measurement": "remaining activity", "value": "110%"}
{"Structure (SMILES)": "CC#CC(=O)N1CCC[C@H]1c1nc(-c2ccc(C(=O)Nc3ccccn3)cc2)c2c(N)nccn12", "target or system": "CAMK1 (Homo sapiens, UniProt Q14012)", "test": "kinase activity, inhibitor, HotSpot radiometric", "setting": "100 nM, with: ATP 10 µM", "measurement": "remaining activity", "value": "98.8 ± 3.7%"}
{"Structure (SMILES)": "Cc1ccc(NC(=O)c2ccc(C)c(C(F)(F)F)c2)cc1C#Cc1nn(C2CCC(O)CC2)c2ncnc(N)c12 (stereo not shown)", "target or system": "Phosphatidylinositol 4,5-bisphosphate 3-kinase catalytic subunit beta isoform, with p85 alpha (Pik3cb, Mus musculus, UniProt Q8BTI9)", "test": "enzyme activity, inhibitor", "setting": "10 µM, p110b/p85a)(m mouse, with: ATP 10 µM", "measurement": "remaining activity", "value": "84%"}
{"Structure (SMILES)": "CC(C)(O)[C@H]1CC[C@H](Nc2ccc3ncc(-c4cccc(C(F)(F)F)c4)n3n2)CC1", "target or system": "SRPK3 (Homo sapiens, UniProt Q9UPE1)", "test": "enzyme activity, inhibitor", "setting": "1 µM, with: 10 µM ATP", "how to read": "reference: DMSO", "measurement": "remaining activity", "value": "80.9%"}
{"Structure (SMILES)": "COc1ccc(F)cc1C(=O)NCc1ccc(-c2nn([C@@H](C)C(F)(F)F)c(N)c2C(N)=O)cc1", "target or system": "STK26", "test": "kinase activity, inhibitor, HotSpot radiometric", "setting": "1000 nM, with: ATP at Km", "measurement": "remaining activity", "value": "74.9 ± 2.7%"}
{"Structure (SMILES)": "O=C(O)c1cc(O)c(=O)c2c(O)c(O)ccc2c1", "target or system": "DCLRE1A", "test": "exonuclease activity, inhibitor, fluorescence HTS", "setting": "10 µM, 80 min, with: 8 nM 5P-FQ substrate", "measurement": "remaining activity", "value": "28.8%"}
{"Structure (SMILES)": "COc1cc(N2CCN(C)CC2)ccc1Nc1nc(N)n(C(=O)NCc2c(Cl)cccc2Cl)n1", "target or system": "MAP3K19 (Homo sapiens, UniProt Q56UN5)", "test": "enzyme activity", "setting": "10 µM", "how to read": "reference: control", "measurement": "remaining activity", "value": "0.95%"}
{"Structure (SMILES)": "O=c1cc(-c2ccc(O)c(-c3c(O)cc(O)c4c(=O)cc(-c5ccc(O)cc5)oc34)c2)oc2cc(O)cc(O)c12", "target or system": "DCLRE1A", "test": "exonuclease activity, inhibitor, fluorescence HTS", "setting": "10 µM, 80 min, with: 8 nM 5P-FQ substrate", "measurement": "remaining activity", "value": "35.4%"}
{"Structure (SMILES)": "COc1cc(N2CCN(C)CC2)ccc1Nc1nc(N)n(C(=S)NCc2c(Cl)cccc2Cl)n1", "target or system": "STK11 (Homo sapiens, UniProt Q15831)", "test": "enzyme activity", "setting": "10 µM", "how to read": "reference: control", "measurement": "remaining activity", "value": "1.1%"}
{"Structure (SMILES)": "O=C1C=C2CC3(O)COc4c(ccc(O)c4O)C3=C2C=C1O (stereo not shown)", "target or system": "DCLRE1A", "test": "exonuclease activity, inhibitor, fluorescence HTS", "setting": "10 µM, 80 min, with: 8 nM 5P-FQ substrate", "measurement": "remaining activity", "value": "18.6%"}
{"Structure (SMILES)": "C=CC(=O)N1CCC[C@@H](n2nc(-c3ccc(Oc4ccccc4)cc3)c3c(N)ncnc32)C1", "target or system": "ARAF (Homo sapiens, UniProt P10398)", "test": "kinase activity, inhibitor, HotSpot radiometric", "setting": "100 nM, with: ATP 10 µM", "measurement": "remaining activity", "value": "37 ± 0.8%"}
{"Structure (SMILES)": "CC1=C(CCC(=O)O)c2cc3[nH]c(cc4nc(cc5[nH]c(cc1n2)c(C)c5C(C)O)C(C)=C4C(C)O)c(C)c3CCC(=O)O (stereo not shown)", "target or system": "DCLRE1A", "test": "exonuclease activity, inhibitor, fluorescence HTS", "setting": "10 µM, 80 min, with: 8 nM 5P-FQ substrate", "measurement": "remaining activity", "value": "17.7%"}
{"Structure (SMILES)": "C=CC(=O)N1CCC[C@@H](n2nc(-c3ccc(Oc4ccccc4)cc3)c3c(N)ncnc32)C1", "target or system": "EPHB1 (Homo sapiens, UniProt P54762)", "setting": "1 µM", "measurement": "remaining activity", "value": "165%"}
{"note": "Some of these lines once more:"}
{"Structure (SMILES)": "O=C(O)c1ccc(Nc2ncc3c(n2)-c2ccc(Cl)cc2C(c2c(F)cccc2F)=NC3)cc1", "target or system": "human LIMK1(h)", "test": "kinase activity", "setting": "1 µM", "measurement": "remaining activity", "value": "110%"}
{"Structure (SMILES)": "CC#CC(=O)N1CCC[C@H]1c1nc(-c2ccc(C(=O)Nc3ccccn3)cc2)c2c(N)nccn12", "target or system": "CAMK1 (Homo sapiens, UniProt Q14012)", "test": "kinase activity, inhibitor, HotSpot radiometric", "setting": "100 nM, with: ATP 10 µM", "measurement": "remaining activity", "value": "98.8 ± 3.7%"}
{"Structure (SMILES)": "Cc1ccc(NC(=O)c2ccc(C)c(C(F)(F)F)c2)cc1C#Cc1nn(C2CCC(O)CC2)c2ncnc(N)c12 (stereo not shown)", "target or system": "Phosphatidylinositol 4,5-bisphosphate 3-kinase catalytic subunit beta isoform, with p85 alpha (Pik3cb, Mus musculus, UniProt Q8BTI9)", "test": "enzyme activity, inhibitor", "setting": "10 µM, p110b/p85a)(m mouse, with: ATP 10 µM", "measurement": "remaining activity", "value": "84%"}
{"Structure (SMILES)": "CC(C)(O)[C@H]1CC[C@H](Nc2ccc3ncc(-c4cccc(C(F)(F)F)c4)n3n2)CC1", "target or system": "SRPK3 (Homo sapiens, UniProt Q9UPE1)", "test": "enzyme activity, inhibitor", "setting": "1 µM, with: 10 µM ATP", "how to read": "reference: DMSO", "measurement": "remaining activity", "value": "80.9%"}
